Results gathered from unrelated publications.
Parts stem from different laboratories: compare values within a part only. “And” joins repeats or separate records; there may be more than shown.
Sequence of UniProt P28335 (whole entry, looked up): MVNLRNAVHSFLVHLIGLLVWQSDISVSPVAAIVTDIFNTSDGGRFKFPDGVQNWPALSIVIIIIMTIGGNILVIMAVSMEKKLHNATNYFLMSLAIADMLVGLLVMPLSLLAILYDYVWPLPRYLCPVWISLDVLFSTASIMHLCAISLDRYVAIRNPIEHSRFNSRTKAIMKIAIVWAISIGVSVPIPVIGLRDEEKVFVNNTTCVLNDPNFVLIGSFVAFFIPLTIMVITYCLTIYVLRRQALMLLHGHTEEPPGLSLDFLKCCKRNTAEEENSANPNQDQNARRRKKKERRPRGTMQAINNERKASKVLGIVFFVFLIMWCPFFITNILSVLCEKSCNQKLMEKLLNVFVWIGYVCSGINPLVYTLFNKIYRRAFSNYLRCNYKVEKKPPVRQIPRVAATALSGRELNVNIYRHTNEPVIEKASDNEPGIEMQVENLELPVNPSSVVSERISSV
Sequence of UniProt P62344 (whole entry, looked up): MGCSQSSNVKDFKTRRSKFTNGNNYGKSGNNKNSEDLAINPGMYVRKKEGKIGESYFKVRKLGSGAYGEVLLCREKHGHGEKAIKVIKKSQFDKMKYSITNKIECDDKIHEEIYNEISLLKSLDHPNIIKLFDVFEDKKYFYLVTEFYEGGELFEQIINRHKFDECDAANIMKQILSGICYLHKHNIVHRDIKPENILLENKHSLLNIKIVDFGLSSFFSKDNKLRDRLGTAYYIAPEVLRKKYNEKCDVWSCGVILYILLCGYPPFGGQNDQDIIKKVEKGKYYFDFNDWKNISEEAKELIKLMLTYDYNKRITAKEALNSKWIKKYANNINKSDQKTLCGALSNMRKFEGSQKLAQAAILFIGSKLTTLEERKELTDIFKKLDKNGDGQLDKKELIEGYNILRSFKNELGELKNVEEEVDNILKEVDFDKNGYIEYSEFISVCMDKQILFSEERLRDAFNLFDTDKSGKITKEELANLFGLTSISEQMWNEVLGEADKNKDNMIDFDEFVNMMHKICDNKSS
Sequence of UniProt P17106 (whole entry, looked up): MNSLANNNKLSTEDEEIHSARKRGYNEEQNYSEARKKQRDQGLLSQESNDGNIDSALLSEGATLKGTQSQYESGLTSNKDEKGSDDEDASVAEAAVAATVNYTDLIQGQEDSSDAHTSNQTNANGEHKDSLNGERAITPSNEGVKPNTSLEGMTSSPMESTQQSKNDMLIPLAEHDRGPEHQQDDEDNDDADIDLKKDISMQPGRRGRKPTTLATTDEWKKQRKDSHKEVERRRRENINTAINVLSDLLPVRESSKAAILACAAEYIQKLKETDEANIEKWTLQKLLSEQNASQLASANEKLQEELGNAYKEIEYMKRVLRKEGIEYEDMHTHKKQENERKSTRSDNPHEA
Sequence of UniProt P41143 (whole entry, looked up): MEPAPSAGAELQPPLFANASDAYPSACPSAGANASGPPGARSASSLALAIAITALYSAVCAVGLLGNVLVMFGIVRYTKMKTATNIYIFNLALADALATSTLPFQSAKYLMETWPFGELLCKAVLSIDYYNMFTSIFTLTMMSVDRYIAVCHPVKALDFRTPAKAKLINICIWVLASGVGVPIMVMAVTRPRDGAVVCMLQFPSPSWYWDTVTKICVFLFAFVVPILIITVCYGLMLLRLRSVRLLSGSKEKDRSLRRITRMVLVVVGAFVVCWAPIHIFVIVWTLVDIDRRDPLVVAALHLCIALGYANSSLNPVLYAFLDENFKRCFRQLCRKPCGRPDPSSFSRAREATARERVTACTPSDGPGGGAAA

Series 1
Compound: O=C1CCC(N2Cc3c(ccc4c3OCC43CCN(Cc4ccccc4)CC3)C2=O)C(=O)N1 (stereo not shown)
Matrix: plasma
system	setting	MRT(0-inf)
Sprague Dawley rat, male	oral, 3.0 mg/kg	4.26 h
male CD-1 mouse	oral, 3 mg/kg	3.17 h
male Sprague-Dawley rat	oral, 3 mg/kg	4.05 h
male CD-1 mouse	intravenous, 1 mg/kg	1.8 h
male ICR mice	oral, 3.0 mg/kg	4.24 h and 3.26 h and 2.01 h
Sprague Dawley rat, male	intravenous, 1.0 mg/kg	2.7 h

Series 2
Target: DNA polymerase theta, ATPase domain (POLQ, Homo sapiens, UniProt O75417)
Sequence of UniProt O75417 (whole entry, unmodified, looked up): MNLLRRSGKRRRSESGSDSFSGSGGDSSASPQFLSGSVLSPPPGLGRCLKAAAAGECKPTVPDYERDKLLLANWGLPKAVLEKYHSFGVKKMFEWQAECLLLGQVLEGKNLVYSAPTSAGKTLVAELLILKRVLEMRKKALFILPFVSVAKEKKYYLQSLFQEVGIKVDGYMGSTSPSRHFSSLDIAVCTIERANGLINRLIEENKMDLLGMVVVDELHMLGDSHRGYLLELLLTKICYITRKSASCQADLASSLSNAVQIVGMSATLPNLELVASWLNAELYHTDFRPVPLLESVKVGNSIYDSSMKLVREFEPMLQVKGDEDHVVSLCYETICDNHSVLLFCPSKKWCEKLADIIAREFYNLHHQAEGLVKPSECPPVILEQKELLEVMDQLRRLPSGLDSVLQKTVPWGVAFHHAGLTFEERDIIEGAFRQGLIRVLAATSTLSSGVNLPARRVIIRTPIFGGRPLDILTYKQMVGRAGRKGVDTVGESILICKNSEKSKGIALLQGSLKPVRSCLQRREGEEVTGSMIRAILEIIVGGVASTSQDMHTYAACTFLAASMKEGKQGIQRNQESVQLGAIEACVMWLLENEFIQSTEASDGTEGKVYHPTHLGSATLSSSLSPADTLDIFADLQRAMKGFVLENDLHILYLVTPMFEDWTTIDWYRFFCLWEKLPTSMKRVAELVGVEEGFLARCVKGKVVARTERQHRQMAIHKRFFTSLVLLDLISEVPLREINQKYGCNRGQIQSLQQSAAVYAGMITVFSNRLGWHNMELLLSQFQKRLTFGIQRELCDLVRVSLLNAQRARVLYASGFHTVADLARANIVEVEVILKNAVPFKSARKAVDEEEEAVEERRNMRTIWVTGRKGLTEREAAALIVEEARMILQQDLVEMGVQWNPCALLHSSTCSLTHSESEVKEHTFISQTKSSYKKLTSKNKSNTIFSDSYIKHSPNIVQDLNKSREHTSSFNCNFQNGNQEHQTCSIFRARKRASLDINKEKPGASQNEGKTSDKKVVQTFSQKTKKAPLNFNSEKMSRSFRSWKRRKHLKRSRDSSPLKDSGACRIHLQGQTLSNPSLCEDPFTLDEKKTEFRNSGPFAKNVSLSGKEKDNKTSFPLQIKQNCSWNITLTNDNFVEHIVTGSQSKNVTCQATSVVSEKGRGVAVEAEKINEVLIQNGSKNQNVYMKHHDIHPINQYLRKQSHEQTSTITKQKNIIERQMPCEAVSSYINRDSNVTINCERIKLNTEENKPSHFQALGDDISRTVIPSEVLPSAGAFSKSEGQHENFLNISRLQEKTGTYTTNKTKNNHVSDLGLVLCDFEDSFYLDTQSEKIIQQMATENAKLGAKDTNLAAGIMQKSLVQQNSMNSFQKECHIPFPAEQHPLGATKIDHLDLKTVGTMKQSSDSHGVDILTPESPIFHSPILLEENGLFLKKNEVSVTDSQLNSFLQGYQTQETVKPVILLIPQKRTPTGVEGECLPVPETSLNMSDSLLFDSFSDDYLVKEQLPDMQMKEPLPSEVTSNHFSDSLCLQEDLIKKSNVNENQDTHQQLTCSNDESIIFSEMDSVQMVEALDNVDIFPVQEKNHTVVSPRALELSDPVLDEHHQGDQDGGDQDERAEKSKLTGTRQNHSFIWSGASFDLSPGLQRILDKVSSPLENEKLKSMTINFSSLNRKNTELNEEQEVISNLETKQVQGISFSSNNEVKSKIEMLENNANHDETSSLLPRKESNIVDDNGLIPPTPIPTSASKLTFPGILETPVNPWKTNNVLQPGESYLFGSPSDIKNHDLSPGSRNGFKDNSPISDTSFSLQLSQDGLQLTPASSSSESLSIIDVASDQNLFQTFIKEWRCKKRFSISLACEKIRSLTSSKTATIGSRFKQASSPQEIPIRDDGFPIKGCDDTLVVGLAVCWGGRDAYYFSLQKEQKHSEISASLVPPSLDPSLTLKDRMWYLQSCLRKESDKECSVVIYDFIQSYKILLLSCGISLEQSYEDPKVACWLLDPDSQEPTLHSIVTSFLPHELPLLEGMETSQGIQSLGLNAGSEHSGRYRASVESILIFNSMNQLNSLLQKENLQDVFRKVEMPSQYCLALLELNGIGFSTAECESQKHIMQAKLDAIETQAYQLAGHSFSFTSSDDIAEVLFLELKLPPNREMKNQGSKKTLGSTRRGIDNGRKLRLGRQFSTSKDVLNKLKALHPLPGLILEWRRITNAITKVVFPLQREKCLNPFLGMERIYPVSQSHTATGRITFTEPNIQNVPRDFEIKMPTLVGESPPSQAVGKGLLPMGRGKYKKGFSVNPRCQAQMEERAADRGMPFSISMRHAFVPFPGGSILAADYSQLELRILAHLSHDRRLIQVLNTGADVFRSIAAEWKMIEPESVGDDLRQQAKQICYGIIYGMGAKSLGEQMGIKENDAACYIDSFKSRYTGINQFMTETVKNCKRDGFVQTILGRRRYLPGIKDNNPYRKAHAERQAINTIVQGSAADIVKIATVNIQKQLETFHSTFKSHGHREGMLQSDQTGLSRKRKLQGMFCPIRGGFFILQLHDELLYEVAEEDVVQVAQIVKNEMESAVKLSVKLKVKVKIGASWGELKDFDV
Effect on: enzyme activity
Action: inhibitor
Concentration: 77 µM
Reference: untreated
SMILES	remaining activity [%]
CO[C@H](C)[C@](O)(C(=O)OCC1=CCN2CC[C@H](O)[C@@H]12)C(C)C	102
NNC(=O)c1ccc(O)cc1	109
CN1[C@@H]2CCC[C@H]1CC(=O)C2	100

Series 3
Cell line: HEK-293T-ACE2-TMPRSS2
Technique: cell count
Concentration: 10 µM
SMILES	viability [%]
Cn1cc(CN2CCN(Cc3nccn3C)CC2)c(-c2ccc3c(c2)OCCO3)n1	103
CC1CCN(CCCNC(=O)c2cc3c(s2)-c2ccc(Cl)cc2SC3)CC1	82
C=CCN(Cc1ccccc1OCC)C(=O)c1c(C)nc2ncccn12	66
Cc1cccc(-c2nccc(Nc3ccc(C(=O)N4CCN(Cc5ccccc5)CC4)cc3)n2)c1	67
Cc1ccc(C(=O)Nc2nc3cc(NC(=O)C4CCCCC4)ccc3s2)cc1	72
c1ccc(Nc2nccc(-c3ccncc3)n2)cc1	69
CCOc1ncccc1CNC(=O)C(C)(C)NC(=O)c1cccs1	66
COc1nc2ccccc2cc1-c1cnccc1C	80
COC(=O)c1cc2ccc3c(c2oc1=O)CN(Cc1ccco1)CO3	76
CN1CCC(Cc2noc(COCc3ccccc3)n2)CC1	67
O=C(NCCc1ccccc1)c1cccc(Nc2ccc(-c3ccccc3)nn2)c1	77
CCN1CCN(C(=O)c2c(C)oc3c2C(=O)c2ccccc2C3=O)CC1	77
Cc1cc(SC(C)C(=O)NC2CCS(=O)(=O)C2)nc2ccccc12 (stereo not shown)	70
CCCOC1CCCN(C(=O)CCNC(=O)c2ccc(F)cc2)C1 (stereo not shown)	65
Cc1ccc(N2N=C(C(=O)NCc3ccccc3F)S(=O)(=O)c3cccnc32)cc1	83
CC(=O)Nc1cccc(C(=O)N2CCOC(Cc3ccc(F)cc3)C2)c1 (stereo not shown)	114
Cc1nn(CCC(C)C)c2c1C(CCc1ccccc1)CC(=O)N2 (stereo not shown)	65

Further values, each from its own experiment
Substance	tested on	test	system	setting	scale	measurement	result
COC(=O)[C@]1(O)C[C@@H]2O[C@@]1(C)n1c3ccccc3c3c4c(c5c6ccccc6n2c5c31)C(=O)NC4	Myosin light chain kinase, smooth muscle (MYLK, Homo sapiens, UniProt Q15746)	enzyme activity, inhibitor	–	0.5 µM	reference: control	remaining activity	6.35%
CNC(=O)c1cc(C(=O)N[C@H]2[C@@H]3COC[C@@H]32)cc2c1O[C@@H](CF)[C@@H]2c1ccccc1	Delta-type opioid receptor (OPRD1, Homo sapiens, UniProt P41143)	binding, radioligand binding	–	10 µM	–	inhibition	17.1%
C[C@@H]1C[C@@H]([C@H](O)CC2CC(=O)NC(=O)C2)C(=O)[C@@H](C)C1	A-375	–	–	100 µM, 36 h	–	viability	47.4%
Cc1ccc2cc3c(nc2c1)OCCN(C1CCCC1)C3	–	–	human, microsomes or S9	2 µM, 0.5 h	–	remaining compound	5.75%
CNC(=O)Nc1ccc2c(c1)[C@@]1(CC2)OC(=O)N(CC(=O)N(Cc2ccc(F)cc2)[C@@H](C)C(F)(F)F)C1=O	Calcium-dependent protein kinase 1 (CDPK1, Plasmodium falciparum, UniProt P62344)	cell-free assay, competition with immobilised ligand	–	1 µM	–	remaining binding	93%
TGTACGAAGCTATATCACCCATATATAGTAGTTAGGGTCTTGATTCGCTTGACGCTGCTG	Centromere-binding protein 1, full length, N-terminal tag (CBF1, Saccharomyces cerevisiae, UniProt P17106, residues 1-351)	protein-binding microarray	double-stranded DNA, one strand shown, in vitro	0.8 µM, whole 60-bp probe, no competitor	higher = stronger binding	fluorescence intensity	518 a.u.
C[C@@H]1CN(c2cc(-c3nn(C)c4ccc(OC5(C)CC5)cc34)ncn2)C[C@H](C)O1	5-hydroxytryptamine receptor 2C (HTR2C, Homo sapiens, UniProt P28335)	binding, radioligand binding	–	10 µM	–	inhibition	18.7%
CCN1CC2(COC)CCC(OC)C34C5CC6(O)C(OC)CC(OC(C)=O)(C5C6C(=O)c5ccc(OC)cc5)C(C(OC)C23)C14 (stereo not shown)	A-375	–	–	100 µM, 36 h	–	viability	95%
